Experimental data collected from several papers.
Every numbered part comes from another study and shows a few of its results, in no order.

Series 1 — method: protein-binding microarray; form: double-stranded DNA, one strand shown; sample: in vitro; concentration: not given; reading: higher = stronger binding
Target: Transcriptional repressor CTCF (CTCF, Homo sapiens, UniProt P49711, residues 1-727, full length assumed)
Setting: k-mer, scored over probes, only values ≥0.25
Construct (chain): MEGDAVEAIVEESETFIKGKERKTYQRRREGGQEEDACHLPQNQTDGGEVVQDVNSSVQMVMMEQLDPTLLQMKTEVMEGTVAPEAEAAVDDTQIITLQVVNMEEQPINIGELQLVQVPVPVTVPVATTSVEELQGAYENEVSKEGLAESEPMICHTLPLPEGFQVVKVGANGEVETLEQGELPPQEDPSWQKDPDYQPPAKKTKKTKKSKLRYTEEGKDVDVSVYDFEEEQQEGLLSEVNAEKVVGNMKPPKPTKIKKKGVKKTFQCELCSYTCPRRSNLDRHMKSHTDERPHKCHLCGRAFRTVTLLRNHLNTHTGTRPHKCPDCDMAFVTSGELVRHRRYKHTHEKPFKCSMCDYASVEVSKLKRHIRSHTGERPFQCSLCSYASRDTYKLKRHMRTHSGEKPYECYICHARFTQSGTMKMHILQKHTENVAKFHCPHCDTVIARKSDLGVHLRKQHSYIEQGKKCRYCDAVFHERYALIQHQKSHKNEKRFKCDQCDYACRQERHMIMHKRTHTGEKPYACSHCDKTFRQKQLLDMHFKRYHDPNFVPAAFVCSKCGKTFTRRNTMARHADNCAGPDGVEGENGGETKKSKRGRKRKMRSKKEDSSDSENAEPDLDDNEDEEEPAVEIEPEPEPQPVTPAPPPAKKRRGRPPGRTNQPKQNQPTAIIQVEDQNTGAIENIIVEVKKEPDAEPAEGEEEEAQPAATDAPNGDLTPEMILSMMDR
`AATACTAT` has an E-score of 0.286.
`AATTACGC` has an E-score of 0.268.
`ATAGGGGG` gave an E-score of 0.342.
`GATCATTA` has an E-score of 0.265.
For `TGCGTAAA`, the E-score was 0.267.

Series 2 — method: RNA Bind-n-Seq; form: RNA; sample: in vitro; concentration: 200 nM; setting: whole 134-nt RNA, ends assumed; with: 150 mM KCl; baseline: input library; reading: higher = stronger binding
Target: Ras GTPase-activating protein-binding protein 1, full length (G3BP1, Homo sapiens, UniProt Q13283)
Sequence of UniProt Q13283 (whole entry, looked up): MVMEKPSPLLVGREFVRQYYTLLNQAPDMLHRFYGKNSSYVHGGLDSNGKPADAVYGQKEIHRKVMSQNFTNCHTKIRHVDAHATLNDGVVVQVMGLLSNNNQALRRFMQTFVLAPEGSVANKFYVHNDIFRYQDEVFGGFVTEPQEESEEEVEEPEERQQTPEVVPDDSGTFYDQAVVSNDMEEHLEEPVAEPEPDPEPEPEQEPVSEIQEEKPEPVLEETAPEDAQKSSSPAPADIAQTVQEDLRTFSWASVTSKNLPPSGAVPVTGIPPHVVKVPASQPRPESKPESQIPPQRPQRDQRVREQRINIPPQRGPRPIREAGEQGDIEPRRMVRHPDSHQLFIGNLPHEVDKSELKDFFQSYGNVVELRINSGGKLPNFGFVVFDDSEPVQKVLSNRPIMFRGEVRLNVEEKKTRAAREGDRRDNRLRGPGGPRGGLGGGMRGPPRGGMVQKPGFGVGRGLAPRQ
`GGGAGUUCUACAGUCCGACGAUCUAAUUGUGAUCUACAUUUUAAAAUAUCAAGAGAUCGUCUCAGUGCUUCUUCCCUUACAAUGGAGAGUUUUGCUUUUCUUUGGGCUGGAGGUGGAAUUCUCGGGUGUCAAGG` has a log2 enrichment of -0.568.
With `GGGAGUUCUACAGUCCGACGAUCUACAGACAACACGCACCCACACAGACACAGAGGGAAGGGGUUGGGAUGGGGACAGGGUGCACAGCAGGGCGGGGUAGGACCCCAGCCCCUUGGAAUUCUCGGGUGUCAAGG` the log2 enrichment was 1.83.
With `GGGAGUUCUACAGUCCGACGAUCCUGUGCUACACAUCGUAUGUACCGAAUCGGGGCCCCCCCGGGGCCCCCCCGGCCCCCCCGGAAAGUAUUAUGUUACGCCGUUCGGAUCUGUGGAAUUCUCGGGUGUCAAGG` the log2 enrichment was -0.493.

Series 3 — method: universal PBM; form: double-stranded DNA, one strand shown; sample: in vitro; concentration: not given; reading: higher = stronger binding
Target: Sal-like protein 4, full length isoform B (SALL4, Homo sapiens, UniProt Q9UJQ4-2, residues 1-616)
Setting: 8-mer, flanks averaged, mean of replicates
Target sequence (chain): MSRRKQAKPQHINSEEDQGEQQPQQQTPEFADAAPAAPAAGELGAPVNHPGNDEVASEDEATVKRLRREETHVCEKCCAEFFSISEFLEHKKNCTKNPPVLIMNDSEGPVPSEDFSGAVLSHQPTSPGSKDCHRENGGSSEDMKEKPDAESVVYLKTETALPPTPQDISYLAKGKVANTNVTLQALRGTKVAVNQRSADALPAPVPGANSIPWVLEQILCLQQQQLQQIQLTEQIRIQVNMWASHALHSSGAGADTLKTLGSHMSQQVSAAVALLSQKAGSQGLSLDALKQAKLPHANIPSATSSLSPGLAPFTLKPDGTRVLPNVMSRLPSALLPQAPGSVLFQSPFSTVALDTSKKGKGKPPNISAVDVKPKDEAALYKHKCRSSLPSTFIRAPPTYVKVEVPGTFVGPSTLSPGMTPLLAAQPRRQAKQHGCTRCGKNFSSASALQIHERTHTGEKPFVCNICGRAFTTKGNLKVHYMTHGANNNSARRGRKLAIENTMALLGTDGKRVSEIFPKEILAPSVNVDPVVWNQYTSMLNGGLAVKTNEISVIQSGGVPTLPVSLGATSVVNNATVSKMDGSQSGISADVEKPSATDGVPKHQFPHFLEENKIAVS
For `AAGAGACG`, the E-score was -0.0239.
The E-score of `AATTTAAT` is reported as 0.38.
`AACTCCGT` gave an E-score of -0.0979.
`CGCCCTTC` has an E-score of -0.305.

Single results of other studies
`PhoQ, residues 284 288 289 292 302 303 SNSSNI` has a fold induction of 0.944 (PhoP, residues 12 14 15 18 19 TTLRV (Escherichia coli, UniProt P23836); Sort-seq, item: YFP reporter; E. coli; PhoQ-PhoP variant library, with: 10 µM Mg2+; baseline: high Mg2+ state, higher = stronger signaling).
